Experimental data collected from several papers.
Each line is one published result; not all experiments were run side by side. Numbers after ± are the reported error.
SIRT6: NAD-dependent protein deacylase sirtuin-6 (SIRT6, Homo sapiens, UniProt Q8N6T7)

Sequences of proteins named here, by UniProt entry; tags and fusion partners are left off. A change or cut given only in a name is not applied to a line headed by its entry. Residues count along the entry.
UniProt Q8N6T7, whole entry: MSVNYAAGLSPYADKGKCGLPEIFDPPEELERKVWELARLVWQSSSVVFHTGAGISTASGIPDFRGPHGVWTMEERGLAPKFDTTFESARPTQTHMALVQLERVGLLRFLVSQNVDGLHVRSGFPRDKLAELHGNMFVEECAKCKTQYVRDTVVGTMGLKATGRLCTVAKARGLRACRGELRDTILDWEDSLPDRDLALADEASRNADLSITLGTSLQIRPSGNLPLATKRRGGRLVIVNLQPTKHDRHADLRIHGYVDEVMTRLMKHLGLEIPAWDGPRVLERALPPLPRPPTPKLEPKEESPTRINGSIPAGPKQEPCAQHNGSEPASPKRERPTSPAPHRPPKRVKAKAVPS
UniProt Q00961, whole entry, looked up: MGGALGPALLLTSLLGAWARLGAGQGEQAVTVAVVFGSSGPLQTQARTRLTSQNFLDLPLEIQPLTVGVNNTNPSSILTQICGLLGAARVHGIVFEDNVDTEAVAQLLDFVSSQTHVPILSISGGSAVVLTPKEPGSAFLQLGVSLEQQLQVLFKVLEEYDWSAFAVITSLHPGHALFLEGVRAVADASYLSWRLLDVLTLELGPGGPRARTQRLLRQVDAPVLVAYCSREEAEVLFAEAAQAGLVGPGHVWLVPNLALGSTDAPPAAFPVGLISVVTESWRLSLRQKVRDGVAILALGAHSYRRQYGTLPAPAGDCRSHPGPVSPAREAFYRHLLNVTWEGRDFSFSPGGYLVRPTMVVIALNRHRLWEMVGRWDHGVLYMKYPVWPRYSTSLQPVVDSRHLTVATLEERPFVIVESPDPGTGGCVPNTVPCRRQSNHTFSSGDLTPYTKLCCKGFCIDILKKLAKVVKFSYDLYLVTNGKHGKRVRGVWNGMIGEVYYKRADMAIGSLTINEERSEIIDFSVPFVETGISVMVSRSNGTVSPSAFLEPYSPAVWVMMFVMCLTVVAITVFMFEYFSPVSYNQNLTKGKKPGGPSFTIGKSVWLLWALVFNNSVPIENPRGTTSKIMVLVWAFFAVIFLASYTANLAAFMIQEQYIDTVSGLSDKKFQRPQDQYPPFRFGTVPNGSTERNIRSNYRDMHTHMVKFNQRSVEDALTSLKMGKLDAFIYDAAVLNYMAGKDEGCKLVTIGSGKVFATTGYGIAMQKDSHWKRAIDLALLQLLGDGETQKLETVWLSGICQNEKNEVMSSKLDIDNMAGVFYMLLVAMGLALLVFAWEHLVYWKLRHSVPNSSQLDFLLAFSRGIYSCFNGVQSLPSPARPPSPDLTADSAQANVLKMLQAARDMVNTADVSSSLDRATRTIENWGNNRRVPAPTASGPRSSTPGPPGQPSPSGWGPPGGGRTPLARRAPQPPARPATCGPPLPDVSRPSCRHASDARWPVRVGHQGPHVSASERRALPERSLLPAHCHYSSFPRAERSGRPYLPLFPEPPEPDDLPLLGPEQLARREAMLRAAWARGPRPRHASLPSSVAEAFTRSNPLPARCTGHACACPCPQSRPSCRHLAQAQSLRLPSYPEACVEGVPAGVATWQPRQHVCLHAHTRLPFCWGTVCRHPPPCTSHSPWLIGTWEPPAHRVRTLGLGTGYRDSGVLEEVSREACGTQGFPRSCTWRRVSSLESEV
UniProt Q9WMX2, 1192-1657 limits assumed: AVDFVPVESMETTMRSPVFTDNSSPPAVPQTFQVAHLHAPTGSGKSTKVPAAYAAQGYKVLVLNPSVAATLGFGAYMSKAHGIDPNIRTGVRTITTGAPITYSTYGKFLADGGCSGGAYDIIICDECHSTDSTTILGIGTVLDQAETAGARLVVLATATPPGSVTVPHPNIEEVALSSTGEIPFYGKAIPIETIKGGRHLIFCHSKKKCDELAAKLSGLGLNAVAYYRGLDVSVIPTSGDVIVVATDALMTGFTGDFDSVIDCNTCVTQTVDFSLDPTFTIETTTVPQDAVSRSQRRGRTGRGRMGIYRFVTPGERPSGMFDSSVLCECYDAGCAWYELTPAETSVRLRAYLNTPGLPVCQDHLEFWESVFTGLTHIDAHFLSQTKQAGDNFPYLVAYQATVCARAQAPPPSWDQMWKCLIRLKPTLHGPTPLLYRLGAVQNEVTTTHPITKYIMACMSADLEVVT
UniProt Q02768, whole entry: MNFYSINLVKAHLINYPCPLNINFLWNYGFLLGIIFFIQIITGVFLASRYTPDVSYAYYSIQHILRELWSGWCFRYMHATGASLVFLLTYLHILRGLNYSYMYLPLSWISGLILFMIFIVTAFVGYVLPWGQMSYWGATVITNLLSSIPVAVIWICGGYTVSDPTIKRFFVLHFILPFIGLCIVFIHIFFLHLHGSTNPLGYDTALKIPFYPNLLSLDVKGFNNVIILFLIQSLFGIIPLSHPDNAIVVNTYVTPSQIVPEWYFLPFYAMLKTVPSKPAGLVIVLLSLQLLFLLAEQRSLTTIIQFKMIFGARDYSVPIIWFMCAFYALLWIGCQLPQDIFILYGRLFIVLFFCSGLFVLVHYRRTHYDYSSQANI
UniProt Q8T6T2, whole entry: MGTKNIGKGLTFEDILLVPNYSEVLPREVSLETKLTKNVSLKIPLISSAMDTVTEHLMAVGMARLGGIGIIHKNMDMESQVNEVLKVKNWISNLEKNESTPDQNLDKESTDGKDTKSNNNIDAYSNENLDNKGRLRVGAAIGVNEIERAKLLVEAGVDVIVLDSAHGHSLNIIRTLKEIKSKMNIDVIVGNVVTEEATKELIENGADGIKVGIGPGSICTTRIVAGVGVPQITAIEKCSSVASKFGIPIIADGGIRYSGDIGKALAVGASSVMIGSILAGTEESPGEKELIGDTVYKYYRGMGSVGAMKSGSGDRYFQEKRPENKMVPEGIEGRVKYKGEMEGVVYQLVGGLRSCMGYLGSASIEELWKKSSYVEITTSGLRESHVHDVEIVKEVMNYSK
UniProt Q16620, whole entry, looked up: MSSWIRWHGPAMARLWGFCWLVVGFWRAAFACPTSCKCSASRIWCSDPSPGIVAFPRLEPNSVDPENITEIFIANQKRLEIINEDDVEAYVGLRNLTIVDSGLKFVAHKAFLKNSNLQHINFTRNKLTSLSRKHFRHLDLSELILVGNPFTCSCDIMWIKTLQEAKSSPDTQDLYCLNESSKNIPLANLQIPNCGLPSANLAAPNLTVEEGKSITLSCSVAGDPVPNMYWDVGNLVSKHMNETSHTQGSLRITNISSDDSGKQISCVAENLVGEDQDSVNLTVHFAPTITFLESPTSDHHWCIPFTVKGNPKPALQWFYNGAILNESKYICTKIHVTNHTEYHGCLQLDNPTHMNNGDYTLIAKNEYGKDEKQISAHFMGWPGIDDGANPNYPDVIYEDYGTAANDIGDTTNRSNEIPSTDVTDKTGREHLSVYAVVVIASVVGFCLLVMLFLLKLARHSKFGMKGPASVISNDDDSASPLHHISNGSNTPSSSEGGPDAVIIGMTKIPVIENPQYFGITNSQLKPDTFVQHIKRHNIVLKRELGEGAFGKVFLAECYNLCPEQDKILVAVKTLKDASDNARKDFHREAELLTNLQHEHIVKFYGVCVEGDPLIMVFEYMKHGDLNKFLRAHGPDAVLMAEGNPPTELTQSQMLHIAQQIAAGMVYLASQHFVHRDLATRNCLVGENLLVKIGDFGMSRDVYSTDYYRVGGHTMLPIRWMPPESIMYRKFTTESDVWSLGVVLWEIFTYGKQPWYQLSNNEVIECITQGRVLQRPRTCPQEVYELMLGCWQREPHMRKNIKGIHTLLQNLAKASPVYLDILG
UniProt P28223, whole entry: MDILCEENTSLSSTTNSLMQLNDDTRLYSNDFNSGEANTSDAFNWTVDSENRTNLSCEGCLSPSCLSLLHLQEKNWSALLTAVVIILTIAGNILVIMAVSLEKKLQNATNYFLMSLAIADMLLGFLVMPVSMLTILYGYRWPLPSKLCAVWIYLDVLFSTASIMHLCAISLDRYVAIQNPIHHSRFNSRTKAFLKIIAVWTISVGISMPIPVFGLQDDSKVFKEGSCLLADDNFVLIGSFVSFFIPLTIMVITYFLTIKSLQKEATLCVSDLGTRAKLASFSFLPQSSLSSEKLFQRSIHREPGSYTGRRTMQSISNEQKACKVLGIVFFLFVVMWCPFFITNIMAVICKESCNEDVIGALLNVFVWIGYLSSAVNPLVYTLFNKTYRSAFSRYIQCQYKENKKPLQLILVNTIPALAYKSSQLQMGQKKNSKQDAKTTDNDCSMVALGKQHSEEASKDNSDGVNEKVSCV
UniProt Q14145, 321-609 limits assumed: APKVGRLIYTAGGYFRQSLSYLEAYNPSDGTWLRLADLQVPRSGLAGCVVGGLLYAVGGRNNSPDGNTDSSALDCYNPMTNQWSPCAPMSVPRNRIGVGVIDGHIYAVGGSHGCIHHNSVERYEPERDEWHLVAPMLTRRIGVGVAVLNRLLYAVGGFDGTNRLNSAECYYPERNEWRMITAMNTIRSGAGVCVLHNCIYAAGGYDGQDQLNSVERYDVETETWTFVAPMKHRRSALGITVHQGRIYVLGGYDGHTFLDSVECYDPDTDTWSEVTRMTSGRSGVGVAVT
UniProt P15307, whole entry: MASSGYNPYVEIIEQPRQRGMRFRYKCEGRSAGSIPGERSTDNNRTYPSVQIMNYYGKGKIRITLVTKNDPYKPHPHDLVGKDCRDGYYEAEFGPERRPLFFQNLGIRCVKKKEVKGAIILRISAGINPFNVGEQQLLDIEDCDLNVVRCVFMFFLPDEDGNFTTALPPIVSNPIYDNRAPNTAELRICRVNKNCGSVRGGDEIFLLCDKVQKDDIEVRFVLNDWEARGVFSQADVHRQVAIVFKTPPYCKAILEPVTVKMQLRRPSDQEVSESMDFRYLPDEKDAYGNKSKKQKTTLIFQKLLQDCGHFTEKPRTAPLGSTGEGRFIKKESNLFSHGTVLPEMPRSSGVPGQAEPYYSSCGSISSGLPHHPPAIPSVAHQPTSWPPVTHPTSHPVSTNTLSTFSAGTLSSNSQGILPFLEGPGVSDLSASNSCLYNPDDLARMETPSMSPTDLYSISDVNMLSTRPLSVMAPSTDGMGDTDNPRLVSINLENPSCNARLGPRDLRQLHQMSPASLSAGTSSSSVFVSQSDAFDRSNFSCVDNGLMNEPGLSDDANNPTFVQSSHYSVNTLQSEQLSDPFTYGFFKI
UniProt Q9LCT3, whole entry: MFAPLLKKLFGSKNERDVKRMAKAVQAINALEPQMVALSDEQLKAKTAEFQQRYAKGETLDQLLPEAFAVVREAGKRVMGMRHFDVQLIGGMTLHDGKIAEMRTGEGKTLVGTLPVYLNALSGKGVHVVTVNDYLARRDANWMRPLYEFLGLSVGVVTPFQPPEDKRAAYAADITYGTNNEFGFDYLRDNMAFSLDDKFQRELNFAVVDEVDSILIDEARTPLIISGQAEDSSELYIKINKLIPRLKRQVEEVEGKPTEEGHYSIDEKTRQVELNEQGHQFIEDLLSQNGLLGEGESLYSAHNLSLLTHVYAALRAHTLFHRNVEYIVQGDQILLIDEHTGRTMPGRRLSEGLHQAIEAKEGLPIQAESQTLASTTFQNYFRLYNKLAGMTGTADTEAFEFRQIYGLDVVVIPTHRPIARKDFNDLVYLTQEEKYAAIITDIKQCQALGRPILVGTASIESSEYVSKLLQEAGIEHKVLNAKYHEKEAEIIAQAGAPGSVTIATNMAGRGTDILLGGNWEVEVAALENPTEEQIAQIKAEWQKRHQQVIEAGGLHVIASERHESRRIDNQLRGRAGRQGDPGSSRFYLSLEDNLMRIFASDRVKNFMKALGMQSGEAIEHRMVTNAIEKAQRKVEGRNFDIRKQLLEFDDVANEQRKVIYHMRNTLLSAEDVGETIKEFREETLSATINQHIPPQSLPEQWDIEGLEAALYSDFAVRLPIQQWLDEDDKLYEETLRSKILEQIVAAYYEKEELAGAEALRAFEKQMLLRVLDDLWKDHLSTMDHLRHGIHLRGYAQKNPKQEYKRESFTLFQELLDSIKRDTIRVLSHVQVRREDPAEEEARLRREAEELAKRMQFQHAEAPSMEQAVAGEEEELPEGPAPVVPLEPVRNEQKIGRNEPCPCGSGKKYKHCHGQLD
UniProt A3FQ16, 1-538: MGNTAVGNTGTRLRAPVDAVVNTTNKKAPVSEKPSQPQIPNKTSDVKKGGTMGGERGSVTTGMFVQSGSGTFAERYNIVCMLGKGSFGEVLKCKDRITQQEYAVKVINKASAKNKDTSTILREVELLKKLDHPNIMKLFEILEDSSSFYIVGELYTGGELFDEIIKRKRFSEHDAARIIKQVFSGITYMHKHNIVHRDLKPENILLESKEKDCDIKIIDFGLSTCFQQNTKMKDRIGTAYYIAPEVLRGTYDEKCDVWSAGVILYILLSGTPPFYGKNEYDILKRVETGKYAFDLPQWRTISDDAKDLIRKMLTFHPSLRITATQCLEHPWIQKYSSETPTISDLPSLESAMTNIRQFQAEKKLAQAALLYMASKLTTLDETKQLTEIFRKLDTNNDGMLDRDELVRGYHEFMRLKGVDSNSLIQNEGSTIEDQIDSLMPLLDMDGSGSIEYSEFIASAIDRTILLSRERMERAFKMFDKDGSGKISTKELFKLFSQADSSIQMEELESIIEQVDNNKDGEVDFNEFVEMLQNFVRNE

SMILES	target	test	system	setting	scale	measurement	value
CCN(CC)C(=O)Oc1ccc(C(=O)Nc2cccc3cc[nH]c23)cc1	Gamma-aminobutyric acid receptor subunit rho-1 (GABRR1, Homo sapiens, UniProt P24046)	modulator, two-electrode voltage clamp	Xenopus oocytes	20 µM, added: 1 µM GABA	baseline: agonist alone	current response	96.6 ± 0.8%
COc1ccc(OC[C@H]2c3cccn3CC(=O)N2Cc2cccc(F)c2)cc1	Glutamate receptor ionotropic, NMDA 2C, with GluN1 (Rattus norvegicus, UniProt Q00961)	ion current, positive allosteric modulator, two-electrode voltage clamp	Xenopus oocytes expressing GluN1/GluN2C			maximum potentiation	292%
Cc1cc(C(O)(c2ccc(Nc3ccccc3)cc2)c2ccc(Nc3ccc(S(=O)(=O)O)cc3)cc2)ccc1N (stereo not shown)	Genome polyprotein, NS3 helicase domain (Hepatitis C virus genotype 1b, UniProt Q9WMX2)	helicase activity, molecular beacon helicase		12 µM		helicase inhibition	no inhibition
CCCCCCCCCCCCCC(=S)NCCCC[C@H](NC(=O)OCc1ccccc1)C(=O)O	SIRT6	demyristoylase activity, inhibitor				IC50	~50000 nM
CCOC(=O)OCOc1c(-c2ccc(Oc3ccc(OC(F)(F)F)cc3)cc2)c(C)nc2cc(OC)c(Cl)cc12	MT-CYB, bc1 complex (Plasmodium falciparum, UniProt Q02768)	enzyme activity	Plasmodium falciparum mitochondria			EC50	5300 nM
O=C(Cn1c(-c2ccccn2)nc2ccccc21)Nc1ccc2ccccc2c1	Inosine-5'-monophosphate dehydrogenase (Cryptosporidium parvum, UniProt Q8T6T2)	enzyme activity, inhibitor		corrected for open enzyme conformation		IC50	1.6 nM
CCCCCCCCCCCCCC(=S)NCCCC[C@H](NC(=O)OCc1ccccc1)C(=O)Nc1cccc(O)c1	SIRT6	defatty-acylase activity, inhibitor		15 min preincubation, added: H3K9-Myr peptide substrate		IC50	> 100000 nM
CC#C/C(=N\OC[C@H]1COCCN1)c1ccc2ncnc(Nc3ccc(OCc4cccc(F)c4)c(Cl)c3)c2c1	BDNF/NT-3 growth factors receptor (NTRK2, Homo sapiens, UniProt Q16620)	kinase activity		10 µM		inhibition	41.4%
CCCN1CCN(c2ccc3c(c2)C2CC3CCN2C(=O)OCc2ccccc2)CC1 (stereo not shown)	5-hydroxytryptamine receptor 2A (HTR2A, Homo sapiens, UniProt P28223)	binding, radioligand binding				Ki	1270 nM
C=CC(=O)N1C[C@H](c2ccc(Br)cc2)[C@@H]1C(=O)Nc1cccc2cccnc12	RNA cytosine C(5)-methyltransferase NSUN2 (NSUN2, Homo sapiens, UniProt Q08J23)	tRNA methylation, inhibitor, LC-MS/MS m5C	cell lysate	1 h, added: tRNA Gly-CCC		IC50	2400 ± 900 nM
C[C@@H](O)[C@@H]1NC(=O)[C@H](CCC(=O)O)NC(=O)[C@H](CO)NC(=O)[C@H](CC(=O)O)NC(=O)[C@@H](N)Cc2ccc(cc2)OCCSC[C@@H](C(=O)O)NC(=O)[C@H](CCC(=O)O)NC(=O)CNC1=O	Kelch-like ECH-associated protein 1, Kelch domain (KEAP1, Homo sapiens, UniProt Q14145)	plate binding		tag-free macrocycle		Kd	120 ± 10 nM
CCN1CCN(Cc2ccc(NC(=O)c3ccc(C)c(/C=C/c4cnc5[nH]ccc5c4OC)c3)cc2C(F)(F)F)CC1	ITK-SYK fusion	kinase-CDC37 interaction, cell-based kinome screen		5 µM	baseline: vehicle	log2 fold change	-0.138
COc1cc(OC)c2ccccc2c1C=C1C(=O)NC(=S)NC1=O	Proto-oncogene c-Rel (Rel, Mus musculus, UniProt P15307)	inhibitor, flow cytometry	activated T cells, mouse	GDM-12 vehicle, added: anti-CD3/CD28		IC50	2900 nM
Cc1cc(O)c2c(c1)C(=O)c1cc(O)cc(O)c1C2=O	Serine protease 1 (PRSS1, Bos taurus, UniProt P00760)	enzyme activity, inhibitor, fluorescence		binding enzyme-substrate complex, added: Boc-GRR-AMC		Ki	5000 ± 400 nM
CSc1nc(Cl)cc(Sc2nnc(-c3cc(C(F)(F)F)cc(C(F)(F)F)c3)[nH]2)n1	Protein translocase subunit SecA (secA, Pseudomonas aeruginosa, UniProt Q9LCT3)	inhibitor	proteoliposomes			IC50	3000 nM
CCOc1ccc2cc(-c3nn(C(C)(C)CCO)c(N)c3C(N)=O)ccc2c1	Calmodulin-domain protein kinase 1, putative (Cryptosporidium parvum, UniProt A3FQ16)	kinase activity, inhibitor				IC50	2.5 nM

A few entries again:
SMILES	target	test	system	setting	scale	measurement	value
CCN(CC)C(=O)Oc1ccc(C(=O)Nc2cccc3cc[nH]c23)cc1	Gamma-aminobutyric acid receptor subunit rho-1 (GABRR1, Homo sapiens, UniProt P24046)	modulator, two-electrode voltage clamp	Xenopus oocytes	20 µM, added: 1 µM GABA	baseline: agonist alone	current response	96.6 ± 0.8%
COc1ccc(OC[C@H]2c3cccn3CC(=O)N2Cc2cccc(F)c2)cc1	Glutamate receptor ionotropic, NMDA 2C, with GluN1 (Rattus norvegicus, UniProt Q00961)	ion current, positive allosteric modulator, two-electrode voltage clamp	Xenopus oocytes expressing GluN1/GluN2C			maximum potentiation	292%
